Published values of several laboratories.
Each numbered part is a random draw from the data of one study; scales do not carry over between parts. Substitutions count along the parent as printed.

Sample 1 — technique: protein binding microarray; form: double-stranded DNA, one strand shown; sample: in vitro; concentration: not given; baseline: not given; direction: higher = stronger binding; endpoint: E-score
Target: Histone acetyltransferase KAT6A, winged helix 2, GST fusion (KAT6A, Homo sapiens, UniProt Q92794, residues 85-181)
Setting: 8-mer, flanks averaged, mean of 2 arrays, mostly near background
Construct (chain): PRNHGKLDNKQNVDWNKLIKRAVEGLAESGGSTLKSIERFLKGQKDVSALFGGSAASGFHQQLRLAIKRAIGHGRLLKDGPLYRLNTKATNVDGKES
Sequence = ACACTTTG; value = -0.103
Sequence = CATTATGA; value = -0.203
Sequence = AGATCGAG; value = -0.017
Sequence = AAACCATT; value = -0.0979
Sequence = ATGGCAGA; value = 0.0724
Sequence = ATGAACTA; value = -0.144
Sequence = ATCACTTG; value = -0.214
Sequence = ACTGTAAT; value = -0.199
Sequence = TGGGTGAA; value = 0.142
Sequence = ACTCTAAG; value = -0.262
Sequence = AGGCCGCG; value = 0.121
Sequence = ACCAGAGA; value = -0.136
Sequence = CCCCAGTC; value = -0.208
Sequence = ATCGTATG; value = -0.101
Sequence = GCCATGAA; value = 0.104
Sequence = GCCACACC; value = -0.0163
Sequence = CGGGATGC; value = 0.0398
Sequence = AATTCAAC; value = 0.104
Sequence = ATCCCTAG; value = -0.134
Sequence = CAGCGCAC; value = 0.158
Sequence = AAACGGCG; value = 0.107
Sequence = ATATGAGC; value = -0.0223
Sequence = CCGCCAAA; value = 0.152
Sequence = AGATTGTG; value = -0.139
Sequence = AGTAGTAG; value = -0.188

Sample 2 — technique: RNA Bind-n-Seq; form: RNA; sample: in vitro; concentration: not given; baseline: input RNA pool; direction: higher = stronger binding; endpoint: bound/input enrichment
Target: RING finger protein unkempt homolog, zinc fingers 1-6, GST-SBP tag (UNK, Homo sapiens, UniProt Q9C0B0, residues 30-357)
Chain of UniProt Q9C0B0 (30-357, looked up): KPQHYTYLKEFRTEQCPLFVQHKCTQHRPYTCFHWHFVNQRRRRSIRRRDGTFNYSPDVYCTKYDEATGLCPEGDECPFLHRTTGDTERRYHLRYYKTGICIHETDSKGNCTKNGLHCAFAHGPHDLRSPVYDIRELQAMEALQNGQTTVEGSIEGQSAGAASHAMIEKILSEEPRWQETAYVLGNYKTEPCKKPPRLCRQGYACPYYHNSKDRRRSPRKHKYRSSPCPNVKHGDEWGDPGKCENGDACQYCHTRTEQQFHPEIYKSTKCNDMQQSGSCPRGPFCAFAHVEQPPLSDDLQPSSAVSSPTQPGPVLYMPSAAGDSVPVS
Setting: RNA with constant flanks, human and mouse sites, ends assumed
Shared flanks, not repeated: GGGAGUUCUACAGUCCGACGAUC … CAACAGAGGAUUGAGCAUCA
Sequence = GUAAUGUGUCCAUUUAACUUAUUUUUAUAGCACUUAGGCAAUAUUGUUAGUCUUAGUGAGUAGUUCACAUCUUUACAAAAGCAUGCUCUCCCUAUCCAUUGGGCCCACAAUAACACUCUC; value = 11.9 ratio
Sequence = AAAAGUGAAAUAACAUUAAAGGUGAAUGUGAGGCUUCUACUUUUAUCCAAAAGGAGCUAUAUUAGCUAGGCUGUUUCUGAUAUCCAAUCAUUGGUUUAACAAUAAAGGCAAUUUGUUUAA; value = 0.562 ratio
Sequence = CAGGAGAACAGGCACUGUAAACCACAUCAUCAGUUUAAAGACUCGGAUUGUCACUAUUUAGAAGCAAGAUGCUUGAAUGAGAGAGAUUAUCGGGACCGGAGAUACAUUGAUGAAUACAGA; value = 0.211 ratio
Sequence = GAACCUGUUGCUGAUGAAGAAGAGGAAGACAGUGAUGAUGAUGUUGAACCUAUUACUGAAUUUAGAUUUGUGCCUAGUGAUAAAUCAGCGUUGGAGGCAAUGUUCACUGCAAUGUGCGAA; value = 1.11 ratio
Sequence = GGAUCAUUCACAGUGAGGACAGACACAGGUGAACCUAUGGGUCGUGGAACAAAAGUUAUCCUACACCUGAAAGAAGACCAAACUGAGUACUUGGAGGAACGAAGAAUAAAGGAGAUUGUG; value = 0.491 ratio
Sequence = GGGCGCUCUGCAUCCAGGUGCCAUUCAUCAGAAAAUAAAAAUGUCUCCUUGAACCUAUCCCUUAGGGCCUGCUUCCUGGAAUCCAAGGGACUAGGAACUCUCUGAGUCACAGGACUCCCA; value = 0.382 ratio
Sequence = CAUGAAGGAACACUGGAUGACUUUACAGUUUUAAACAGACGCAAAAAGGUAGCCAGCAAUGUAGCAUCAGCAGUGAAAAGGCCAUUUAAUUUCAUGGCAAAUUUUCCUUGUCCACCUUCA; value = 0.184 ratio
Sequence = AGCAAAAAAAAAAAAAAAAAAAAAAAAAAAAAGAGUCUCACUGUGCAGCUCAGCUUGUCUUUUAGUGUGUAGGCCUGGUUGUGAUCUUCCCAUCUCCUGAGAGCUGAGAUUACCAGUGUG; value = 1.32 ratio
Sequence = AAACCGCUUUAUCAUCCUUGUGUAUGUACUGGCAGUAUUAAGUUUAUCCAUCAAGAAUGCUUAGUUCAAUGGCUGAAACACAGUCGAAAAGAAUACUGUGAAUUAUGCAAGCACAGAUUU; value = 0.248 ratio
Sequence = GACCCACUUGAGAGGACGCCUCCUGGAGAGCAAGUGCUAUCAAAUCACAGUAACUCCCGUAUUCGCCACGGGGCCCGGAGGCUCUGAGUCCUUGAAGGCGUACCUCAAACAAGCCGCUCC; value = 0.116 ratio
Sequence = GAUUAUUUAUUCAAGUUACUUCUGAUUGGCGAUUCUGGGGUUGGAAAGUCCUGCCUUCUCCUUAGGUUUGCAGAUGAUACGUAUACGGAAAGCUACAUCAGCACAAUUGGUGUGGAUUUC; value = 1.53 ratio

Sample 3 — target: CCNF, cyclin fold, Cln2 fusion (human); technique: yeast growth competition, sequencing; sample: yeast; setting: strong parent motif; baseline: not given; direction: higher = stronger binding; endpoint: normalised enrichment score
Starting sequence: SAMHD1 docking peptide (human); ASKSRVQLFKDDP
Change = ASKSRVQLFEDDP [K10E]; value = 0.745
Change = ASKSRVTLFKDDP [Q7T]; value = 0.358
Change = AGKSRVQLFKDDP [S2G]; value = 1.28
Change = ASKSRVQLGKDDP [F9G]; value = -0.361
Change = ASSSRVQLFKDDP [K3S]; value = 1.06
Change = ASKSLVQLFKDDP [R5L]; value = 0.106
Change = ALKSRVQLFKDDP [S2L]; value = 2.01
Change = ASKRRVQLFKDDP [S4R]; value = 1.1
Change = ANKSRVQLFKDDP [S2N]; value = 2.05
Change = ASKSRVMLFKDDP [Q7M]; value = 0.312
Change = ASKSRVQLFKDWP [D12W]; value = 1.5
Change = ASKSRVQLFKFDP [D11F]; value = 0.812
Change = ASKSRVQLWKDDP [F9W]; value = 0.666
Change = ASKSRVQLFKNDP [D11N]; value = 1.18
Change = ASKSRVQLFNDDP [K10N]; value = 0.842

Sample 4 — technique: RNA Bind-n-Seq; form: RNA; sample: in vitro; concentration: 365 nM; baseline: no-protein control; direction: higher = stronger binding; endpoint: RBNS enrichment (R)
Target: RNA binding protein fox-1 homolog 2, RRM domain, GST-SBP tag (RBFOX2, Homo sapiens, UniProt O43251-10, residues 100-194)
Setting: natural RNA segment, single round, ends assumed
Shared flanks, not repeated: GGGAGUUCUACAGUCCGACGAUC … UGGAAUUCUCGGGUGCCAA
Target sequence (chain): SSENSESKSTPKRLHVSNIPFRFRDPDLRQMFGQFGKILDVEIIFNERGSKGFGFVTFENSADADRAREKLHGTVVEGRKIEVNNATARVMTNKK
Sequence = UUGAAAUAGUCUGUGUGAAGGUGAAAGUGCAGUUCAGUAAUAAACUGUGUUUACUCAGUGAACAAAGGCCUGGGCUCUUGUGUGCUCCGGGAUGGGGAAAGGAGGGGCCG; value = 0.43
Sequence = AAAUGUGACUAUAGUCAUCUUAAUGGGCAUCUUGUCCACUGUGCUUCUUAUGUAUUAUGAAAGUGAUAAGAAGACAAAUUAAGUGGGUAUAUUUUAUAAAAUAAAUUCAU; value = 0.768
Sequence = AAAAUAUAAAAACCCUGCCCAGUAGCAGUGGCAUCGCUUGGUUCCUGAUGCCCAUGUUCCAGAGGAAUUCGGAUACCACAAACAGCUAAGACAAUCUCAGCUUUUCUUAG; value = 0.417
Sequence = GCCUCUCUGACGUGGUGCCUGCUGGAGGGAGGCUCGUCGUCACCAGCUGACUGCUGGUCCGGCUUCUGACCGGCCUUUGUCCUGGCUCCGUAGCAGAACACUGUAAAAGU; value = 0.391
Sequence = UGUCUGUAUGUGUGUAUAGAUGGAUUGGUAUAACUCAUUCUAAACGUGUCUGCCAGGGCUCAAGUUUUAUUGUUCUUGCCCCACUCCCACCCCAUGUUACAGCAAGACUG; value = 0.526
Sequence = AGGAAGGAGCUGCCUUAAGCACUUUAGAAAAAGAAUUUGCUACAAUUCAUUUGACUCAGCUGAUUGUGUCACAUCUUUUAAAUACUGGUAAAUAUGGAUAUACCAAGUAU; value = 0.601
Sequence = UGACUCCUGAAGCAUCAGCCCUUGUCAUACUGUAUUGACUGUGUACGUGCCUUUCACCUUGAGCAUGCUUCAGGAUUUUUUUUUAAACCACAGAACUUGAAUACAUGAGG; value = 16.3
Sequence = UUUUUUUUUUUUUCUGGCCGAAGACAUAUACCCAAGAACAAGAGAUACCUUUAAGCCAGUGAAGGAUACUUGCGAUAGAAUCAUCCGCAACUCAGUGGCCAUUCUUCUGC; value = 0.563
Sequence = UUAGCUAUUAGUUCUUUGUGUUGUCUUAUCAAAGUUUAAUGGAUACAGUUCCACAGUUGUUGAUGUGUUUGUGUGUAUAUUCGAUUUUUAUAAAGAUGGUAGUAAGUCAA; value = 0.794
Sequence = UGACAGUUUAAACUGCUAACAGAUUGAGAGAUCCCUGCUCAGAAACCUCACCUUUAGUGCUUUCUUUAAAGAAGCUGAGGGGUGAAGUUUGCUUACUGAUGUAUCUAUUU; value = 0.189
Sequence = GCUCAGCUUGAAGACAAGUCACAGGUGGGCAAGUAUCACUGCCUGAACAGGGCUGUUAAAGGUCCAUGCUCAAAUACAAGGGAGACAACAGAUAGGACAGGACAGGGCUC; value = 0.443
Sequence = UGGGGCGGCACGUUUUACUCUUUAUCUCGCUUUCGGAGGUGCUUUCGCAGGAGCAUUAACCUCCUGGAGACGGAGCUGGGAGGACUCGGUGCAUCCCUGUGUUGAUAGCU; value = 0.772

Sample 5 — technique: competition protein-binding microarray; form: double-stranded DNA, one strand shown; sample: in vitro; concentration: 2 µM; added: Pho4 competitor, 0.05 µM; direction: higher = stronger binding; endpoint: fluorescence intensity; shared flanks, not repeated: … GTCTTGATTCGCTTGACGCTGCTG
Target: Centromere-binding protein 1, full length, His-tagged (CBF1, Saccharomyces cerevisiae, UniProt P17106, residues 1-351)
Chain of UniProt P17106 (whole entry, looked up): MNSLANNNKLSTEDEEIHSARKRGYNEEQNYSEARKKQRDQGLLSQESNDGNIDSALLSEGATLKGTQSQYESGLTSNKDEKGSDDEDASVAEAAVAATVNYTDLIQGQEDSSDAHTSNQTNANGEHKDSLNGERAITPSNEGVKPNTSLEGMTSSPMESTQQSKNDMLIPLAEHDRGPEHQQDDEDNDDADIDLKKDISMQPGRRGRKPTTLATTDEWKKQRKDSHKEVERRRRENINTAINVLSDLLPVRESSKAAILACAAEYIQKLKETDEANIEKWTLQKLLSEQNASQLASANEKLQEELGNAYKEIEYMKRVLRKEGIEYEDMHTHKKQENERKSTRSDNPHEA
Setting: whole 60-bp probe, lowest competitor level
Sequence = CAAATGATTTATACCCACGCAAAATGACATTGCAAT; value = 83.6 a.u.
Sequence = CGGGCATGTTTCCGTCACATGATGGGATGGCGATGT; value = 714 a.u.
Sequence = GACGCAGCGGGCTTGCTTGTGGACTGCTTGGTGGGG; value = 71.6 a.u.
Sequence = CTTTCCCGATCTTTGCACGTGTTTTTAGCACATTTG; value = 1930 a.u.
Sequence = CTAACGAAGGTTTGTCACGCCACTTACAAGCCAAGT; value = 254 a.u.
Sequence = TAGTTTGTCGCCCGTCACGTGCGATAATGCAAAATA; value = 5280 a.u.
Sequence = CATACCCAACCTTGTCACTATACTTAAGATATTTGT; value = 77.4 a.u.
Sequence = CTCTGAGTTTTTTGACACATGCCAGAAGAAACGTTA; value = 133 a.u.
Sequence = CAAGTGGTGGTGATACACGTGAAGTTTTAGAGGAAA; value = 817 a.u.
Sequence = CCCTTTCCAACGCCCTACGTGCCAGGCCTCGACCGG; value = 56.3 a.u.
Sequence = CTTCTGTAAATTTTTCACGTGAGATGACGCGCCCCG; value = 832 a.u.
Sequence = GCCGCAAATGGCAATCACATGACAATGGCTTGGCCC; value = 1500 a.u.
Sequence = CTTTCCCGATCTTGTCACTTCACTTTAGCACATTTG; value = 71.4 a.u.
Sequence = AAATTACTAAGTTGCCTCGTGGGTGACGCCGTATGA; value = 86.7 a.u.
